Assay results pooled from the literature.
“And” joins repeats or separate records; there may be more than shown. ± gives the spread as reported.

`CC(C)Cc1ccc(C(C)C(=O)[O-])cc1.CC(C)Cc1ccc(C(C)C(=O)[O-])cc1.O.[Cu+2].c1ccncc1.c1ccncc1` (stereo not shown) gave a TGI of 40 ± 0.8 µM (OVCAR-3; MTT; 48 h).
`CNC(=S)N/N=C/c1ccc(OCc2ccccc2)cc1`: “catalase activity (OD450)” 0.029 a.u. (IMR-32; 100 µg/mL, 24 h; higher = more activity).
`O=C(C[Se]C(=O)c1ccc2ccccc2c1)Nc1cccc(C(F)(F)F)c1` gave a CC50 of 10.6 µM (NCI60 leukaemia subpanel; NCI60 five-dose screen).
The log GI50 of `CC(C)(C)C(=O)OCOP(=O)(OCOC(=O)C(C)(C)C)C1CCCN(O)C1=O` (stereo not shown) is reported as -6.49 log M (CAKI-1).
`NC(=S)N/N=C/c1ccc(OCc2cccc(F)c2)cc1` — result for “catalase activity (OD450)”: 0.183 a.u. (IMR-32; 200 µg/mL, 24 h; higher = more activity).
`CSCC[C@H](NC(=O)CNC(=O)[C@H](CCSC)NC(=O)[C@H](CS)NC(=O)[C@@H](N)CS)C(=O)N[C@@H](CS)C(=O)NCC(=O)N[C@@H](CCCCN)C(=O)O` has a p-ERK/ERK ratio of 0.66 ± 0.03 (RAW264.7; Western blot; concentration not given, 6 h pretreatment, together with: LPS 30 min).
`Cc1c(Cl)c(=O)oc2cc(OCCCCCC[Se]C#N)ccc12` has a GI50 of 54 µM (T47D; cell growth or viability, SRB).
For `Cc1cc(Oc2nc(N3CC[C@@H](c4ccncc4)C3)ncc2F)[nH]n1`, the IC50 was 22.9 µM (UMUC3; cell proliferation; bladder cancer).
`COc1ccc2c(c1)c(CC(=O)[Se]CC(=O)Nc1cccc(C(F)(F)F)c1)c(C)n2C(=O)c1ccc(Cl)cc1` has a CC50 of 10.8 µM (NCI60 leukaemia subpanel; NCI60 five-dose screen).
For `CC(=O)NCSC[C@H](NC(=O)[C@@H]1CCCN1C(=O)[C@H](C)NC(=O)[C@@H](NC(=O)CNC(=O)[C@@H](NC(=O)[C@H](Cc1c[nH]c2ccccc12)NC(=O)[C@H](C)NC(=O)CNC(=O)[C@H](CO)NC(=O)[C@H](C)NC(=O)[C@@H]1CCCN1C(=O)[C@H](Cc1c[nH]c2ccccc12)NC(=O)[C@H](C)NC(=O)[C@H](C)NC(=O)[C@@H](N)Cc1ccc(O)cc1)[C@@H](C)O)[C@@H](C)O)C(=O)N[C@@H](CO)C(=O)N[C@@H](C)C(=O)NCC(=O)N[C@H](C(=O)NCCOCCOCCOCCOCCOCCOCCOCCOCCOCCOCCOCCOCCC(=O)N[C@@H](CS)C(N)=O)[C@@H](C)O`, the selectivity ratio was 3.6 ± 1.3 (H2122 lung adenocarcinoma; cell binding, phage binding, refers to: output/input phage; 10 min, 37 °C; baseline: control phage).
`CC1CCC2C(C)C(OC(=O)CCC(=O)N3CCC(Nc4ccc(S(=O)(=O)NC(=O)c5ccc(N6CCN(CC7=C(c8ccc(Cl)cc8)CC(C)(C)CC7)CC6)cc5Oc5cnc6[nH]ccc6c5)cc4[N+](=O)[O-])CC3)OC3OC4(C)CCC1C32OO4` (stereo not shown) gave a necrotic cells of 1% (THP-1; annexin V/PI flow cytometry, refers to: annexin V-/PI+; 1.6 µM, 24 h).
With `COc1ccc(NC(=O)c2ccc3[nH]c(-c4ccc(N(C)C)cc4)nc3c2)cn1` the PI-positive cells was 156 count and 197 count and 133 count (HCT116; IncuCyte; concentration not given, 28 (unit not given)).
`O=C(C[Se]C(=O)c1ccccc1Nc1ccccc1)Nc1cccc(C(F)(F)F)c1` gave a CC50 of 9.73 µM (NCI60 leukaemia subpanel; NCI60 five-dose screen).
`CC(C)C[C@H](NC(=O)[C@H](CC(=O)O)NC(=O)CNC(=O)[C@@H](N)CCCNC(=N)N)C(=O)N[C@@H](C)C(=O)N[C@H](C(=O)N[C@@H](CC(C)C)C(=O)N[C@@H](CCCNC(=N)N)C(=O)N[C@@H](CCC(N)=O)C(=O)N[C@@H](CC(C)C)C(=O)N[C@@H](C)C(=O)N[C@@H](CCC(N)=O)C(=O)N[C@@H](CCC(=O)O)C(=O)N[C@@H](CC(=O)O)C(=O)NCC(=O)N[C@H](C(=O)N[C@H](C(=O)NCC(=O)N[C@H](C(=O)N[C@@H](CCCNC(=N)N)C(=O)NCCOCCOCCOCCOCCOCCOCCOCCOCCOCCOCCOCCOCCC(=O)N[C@@H](CS)C(N)=O)C(C)C)C(C)C)C(C)C)[C@@H](C)O` has a selectivity ratio of 15 ± 3.8 (MCF7 breast cancer; cell binding, phage binding, refers to: output/input phage; 10 min, 37 °C; baseline: control phage).
For `CC(C)CC(O)(CC(C)C)c1cn(C(=O)N2CCCC2)nn1`, “SILAC ratio per peptide” read 0.56 (mouse T cells; N-terminal labelling proteomics, refers to: Samsn1 N-terminal peptide; 0.001 µM, 6 h; baseline: DMSO).
`O=C(C[Se]C(=O)c1ccccc1)Nc1cccc(C(F)(F)F)c1` has a CC50 of 8.56 µM (NCI60 leukaemia subpanel; NCI60 five-dose screen).
`CSCC[C@H](NC(=O)[C@@H](NC(=O)[C@H](CCC(N)=O)NC(=O)[C@H](CO)NC(=O)[C@@H](N)C(C)C)[C@@H](C)O)C(=O)N[C@@H](CCCNC(=N)N)C(=O)N[C@@H](CCC(N)=O)C(=O)N[C@H](C(=O)N[C@@H](C)C(=O)N[C@H](C(=O)N1CCC[C@H]1C(=O)N[C@@H](CC(C)C)C(=O)N[C@@H](CC(C)C)C(=O)N[C@@H](Cc1c[nH]c2ccccc12)C(=O)N[C@@H](Cc1ccccc1)C(=O)N[C@@H](Cc1c[nH]c2ccccc12)C(=O)N[C@H](C(=O)NCC(=O)N[C@@H](CO)C(=O)N[C@@H](CC(C)C)C(=O)NCCOCCOCCOCCOCCOCCOCCOCCOCCOCCOCCOCCOCCC(=O)N[C@@H](CS)C(N)=O)[C@@H](C)O)C(C)C)[C@@H](C)O` gave a selectivity ratio of 190 ± 20 (H1299 lung large cell carcinoma; cell binding, phage binding, refers to: output/input phage; 10 min, 37 °C; baseline: control phage).
For `CC[C@H](C)[C@H](NC(=O)[C@H](C)NC(=O)CNC(=O)[C@H](Cc1ccccc1)NC(=O)[C@H](CC(N)=O)NC(=O)[C@H](CC(N)=O)NC(=O)[C@H](CO[C@@H]1O[C@H](CO)[C@@H](O)[C@H](O)[C@H]1NC(C)=O)NC(=O)[C@H](CO)NC(=O)[C@H](Cc1c[nH]cn1)NC(=O)[C@@H](NC(=O)[C@H](CC(C)C)NC(=O)[C@H](Cc1ccccc1)NC(=O)[C@H](CC(N)=O)NC(=O)[C@H](C)NC(=O)[C@@H](N)CC(C)C)C(C)C)C(=O)N[C@@H](CC(C)C)C(N)=O`, the viability was 64.9% and 67% (INS-1; MTT; 1 equivalents to hIAPP, 24 h, together with: hIAPP 1 µM).
`CC[C@H](C)[C@H](NC(=O)[C@H](C)NC(=O)CNC(=O)[C@H](Cc1ccccc1)NC(=O)[C@H](CC(N)=O)NC(=O)[C@H](CC(N)=O)NC(=O)[C@H](CO)NC(=O)[C@H](CO)NC(=O)[C@H](Cc1c[nH]cn1)NC(=O)[C@@H](NC(=O)[C@H](CC(C)C)NC(=O)[C@H](Cc1ccccc1)NC(=O)[C@H](CC(N)=O)NC(=O)[C@H](C)NC(=O)[C@H](CC(C)C)NC(=O)[C@H](CCCNC(=N)N)NC(=O)[C@H](CCC(N)=O)NC(=O)[C@@H](NC(=O)[C@H](C)NC(=O)[C@@H]1CSSC[C@H](NC(=O)[C@@H](N)CCCCN)C(=O)N[C@@H](CC(N)=O)C(=O)N[C@@H]([C@@H](C)O)C(=O)N[C@@H](C)C(=O)N[C@@H]([C@@H](C)O)C(=O)N1)[C@@H](C)O)C(C)C)C(=O)N[C@@H](CC(C)C)C(=O)N[C@@H](CO)C(=O)N[C@@H](CO)C(=O)N[C@H](C(=O)N[C@@H](CC(N)=O)C(=O)N[C@H](C(=O)NCC(=O)N[C@@H](CO)C(=O)N[C@@H](CC(N)=O)C(=O)N[C@H](C(=O)N[C@@H](Cc1ccc(O)cc1)C(N)=O)[C@@H](C)O)C(C)C)[C@@H](C)O` gave a Pearson coefficient of > 0.6 (RIN-m5F; refers to: 20S proteasome α-4 subunit; 24 h).

For quick reference, copied from above:
`CSCC[C@H](NC(=O)[C@@H](NC(=O)[C@H](CCC(N)=O)NC(=O)[C@H](CO)NC(=O)[C@@H](N)C(C)C)[C@@H](C)O)C(=O)N[C@@H](CCCNC(=N)N)C(=O)N[C@@H](CCC(N)=O)C(=O)N[C@H](C(=O)N[C@@H](C)C(=O)N[C@H](C(=O)N1CCC[C@H]1C(=O)N[C@@H](CC(C)C)C(=O)N[C@@H](CC(C)C)C(=O)N[C@@H](Cc1c[nH]c2ccccc12)C(=O)N[C@@H](Cc1ccccc1)C(=O)N[C@@H](Cc1c[nH]c2ccccc12)C(=O)N[C@H](C(=O)NCC(=O)N[C@@H](CO)C(=O)N[C@@H](CC(C)C)C(=O)NCCOCCOCCOCCOCCOCCOCCOCCOCCOCCOCCOCCOCCC(=O)N[C@@H](CS)C(N)=O)[C@@H](C)O)C(C)C)[C@@H](C)O` gave a selectivity ratio of 190 ± 20 (H1299 lung large cell carcinoma; cell binding, phage binding, refers to: output/input phage; 10 min, 37 °C; baseline: control phage).
For `CC[C@H](C)[C@H](NC(=O)[C@H](C)NC(=O)CNC(=O)[C@H](Cc1ccccc1)NC(=O)[C@H](CC(N)=O)NC(=O)[C@H](CC(N)=O)NC(=O)[C@H](CO[C@@H]1O[C@H](CO)[C@@H](O)[C@H](O)[C@H]1NC(C)=O)NC(=O)[C@H](CO)NC(=O)[C@H](Cc1c[nH]cn1)NC(=O)[C@@H](NC(=O)[C@H](CC(C)C)NC(=O)[C@H](Cc1ccccc1)NC(=O)[C@H](CC(N)=O)NC(=O)[C@H](C)NC(=O)[C@@H](N)CC(C)C)C(C)C)C(=O)N[C@@H](CC(C)C)C(N)=O`, the viability was 64.9% and 67% (INS-1; MTT; 1 equivalents to hIAPP, 24 h, together with: hIAPP 1 µM).
